# Assay results pooled from the literature.
# Every numbered part comes from another study and shows a few of its results, in no order. Values joined by “and” are separate records of one study, mostly repeats; a detail may differ.
# Sequence of UniProt P32298 (whole entry, looked up): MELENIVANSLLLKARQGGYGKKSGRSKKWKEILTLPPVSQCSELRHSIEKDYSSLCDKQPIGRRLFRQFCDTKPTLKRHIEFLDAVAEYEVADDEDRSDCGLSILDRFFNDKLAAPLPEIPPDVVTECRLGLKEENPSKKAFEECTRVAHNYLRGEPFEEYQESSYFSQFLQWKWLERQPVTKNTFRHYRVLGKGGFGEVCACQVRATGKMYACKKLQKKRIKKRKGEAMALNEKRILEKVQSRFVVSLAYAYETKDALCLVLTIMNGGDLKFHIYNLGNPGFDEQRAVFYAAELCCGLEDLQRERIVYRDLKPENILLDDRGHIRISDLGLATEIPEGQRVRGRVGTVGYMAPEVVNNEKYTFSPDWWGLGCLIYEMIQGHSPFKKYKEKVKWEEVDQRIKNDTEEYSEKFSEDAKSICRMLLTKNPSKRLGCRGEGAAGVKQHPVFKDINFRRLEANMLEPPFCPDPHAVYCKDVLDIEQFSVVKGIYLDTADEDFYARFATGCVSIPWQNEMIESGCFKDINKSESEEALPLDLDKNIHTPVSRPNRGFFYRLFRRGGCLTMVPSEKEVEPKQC
# Sequence of UniProt P11802 (whole entry, looked up): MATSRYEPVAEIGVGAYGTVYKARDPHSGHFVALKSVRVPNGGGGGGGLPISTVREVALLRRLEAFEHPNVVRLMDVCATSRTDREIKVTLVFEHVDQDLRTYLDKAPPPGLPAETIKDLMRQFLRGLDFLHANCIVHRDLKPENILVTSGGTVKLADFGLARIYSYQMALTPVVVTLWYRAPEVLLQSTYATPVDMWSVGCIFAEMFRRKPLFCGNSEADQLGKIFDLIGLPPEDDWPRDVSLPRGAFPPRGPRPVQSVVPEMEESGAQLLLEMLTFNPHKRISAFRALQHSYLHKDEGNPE
# Sequence of UniProt P15735 (whole entry, looked up): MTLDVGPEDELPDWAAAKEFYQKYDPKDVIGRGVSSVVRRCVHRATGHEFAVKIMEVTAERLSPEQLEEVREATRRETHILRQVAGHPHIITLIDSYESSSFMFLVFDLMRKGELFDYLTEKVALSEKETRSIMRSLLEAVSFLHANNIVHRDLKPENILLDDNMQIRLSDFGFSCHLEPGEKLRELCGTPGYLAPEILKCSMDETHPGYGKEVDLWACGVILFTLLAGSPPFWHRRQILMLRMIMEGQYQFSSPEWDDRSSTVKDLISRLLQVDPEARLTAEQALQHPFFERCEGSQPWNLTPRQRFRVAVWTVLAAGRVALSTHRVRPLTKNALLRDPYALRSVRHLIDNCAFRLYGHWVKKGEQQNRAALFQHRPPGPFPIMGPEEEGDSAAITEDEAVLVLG
# Sequence of UniProt P04629 (whole entry, looked up): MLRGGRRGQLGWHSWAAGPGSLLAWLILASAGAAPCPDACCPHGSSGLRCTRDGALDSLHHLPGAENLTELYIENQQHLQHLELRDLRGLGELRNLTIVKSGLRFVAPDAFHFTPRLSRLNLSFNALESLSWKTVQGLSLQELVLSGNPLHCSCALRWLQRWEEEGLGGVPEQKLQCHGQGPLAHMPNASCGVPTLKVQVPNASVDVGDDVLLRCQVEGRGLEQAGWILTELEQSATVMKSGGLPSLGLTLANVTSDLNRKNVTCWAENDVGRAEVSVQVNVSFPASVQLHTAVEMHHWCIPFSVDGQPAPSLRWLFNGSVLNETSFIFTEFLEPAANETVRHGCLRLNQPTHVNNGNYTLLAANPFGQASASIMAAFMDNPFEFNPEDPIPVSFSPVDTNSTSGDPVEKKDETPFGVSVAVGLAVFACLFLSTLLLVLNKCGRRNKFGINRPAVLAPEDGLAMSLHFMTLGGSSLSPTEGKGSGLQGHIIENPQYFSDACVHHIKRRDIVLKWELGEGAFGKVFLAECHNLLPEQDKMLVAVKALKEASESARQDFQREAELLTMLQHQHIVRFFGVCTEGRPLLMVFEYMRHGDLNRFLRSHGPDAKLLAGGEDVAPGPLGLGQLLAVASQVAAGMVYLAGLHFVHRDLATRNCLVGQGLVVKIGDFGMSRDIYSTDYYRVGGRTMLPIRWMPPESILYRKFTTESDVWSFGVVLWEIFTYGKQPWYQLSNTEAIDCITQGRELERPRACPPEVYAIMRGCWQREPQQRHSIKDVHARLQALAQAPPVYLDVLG
# Sequence of UniProt O96013 (whole entry, looked up): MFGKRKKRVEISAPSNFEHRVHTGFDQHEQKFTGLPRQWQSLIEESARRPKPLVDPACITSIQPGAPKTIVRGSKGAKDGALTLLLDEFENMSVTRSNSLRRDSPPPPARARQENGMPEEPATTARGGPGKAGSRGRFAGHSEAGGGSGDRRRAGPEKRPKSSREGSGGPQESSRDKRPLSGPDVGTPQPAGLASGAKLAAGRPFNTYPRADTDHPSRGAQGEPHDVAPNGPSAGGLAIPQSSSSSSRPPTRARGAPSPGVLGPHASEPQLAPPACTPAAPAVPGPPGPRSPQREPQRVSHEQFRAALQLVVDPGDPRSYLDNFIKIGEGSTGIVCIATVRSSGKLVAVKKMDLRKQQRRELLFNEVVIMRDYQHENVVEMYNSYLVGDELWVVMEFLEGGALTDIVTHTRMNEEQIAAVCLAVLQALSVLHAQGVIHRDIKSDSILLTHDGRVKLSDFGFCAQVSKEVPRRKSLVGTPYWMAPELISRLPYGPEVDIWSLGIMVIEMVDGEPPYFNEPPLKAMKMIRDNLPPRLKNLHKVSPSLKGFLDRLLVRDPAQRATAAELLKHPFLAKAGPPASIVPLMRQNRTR
# Sequence of UniProt Q96PY6 (whole entry, looked up): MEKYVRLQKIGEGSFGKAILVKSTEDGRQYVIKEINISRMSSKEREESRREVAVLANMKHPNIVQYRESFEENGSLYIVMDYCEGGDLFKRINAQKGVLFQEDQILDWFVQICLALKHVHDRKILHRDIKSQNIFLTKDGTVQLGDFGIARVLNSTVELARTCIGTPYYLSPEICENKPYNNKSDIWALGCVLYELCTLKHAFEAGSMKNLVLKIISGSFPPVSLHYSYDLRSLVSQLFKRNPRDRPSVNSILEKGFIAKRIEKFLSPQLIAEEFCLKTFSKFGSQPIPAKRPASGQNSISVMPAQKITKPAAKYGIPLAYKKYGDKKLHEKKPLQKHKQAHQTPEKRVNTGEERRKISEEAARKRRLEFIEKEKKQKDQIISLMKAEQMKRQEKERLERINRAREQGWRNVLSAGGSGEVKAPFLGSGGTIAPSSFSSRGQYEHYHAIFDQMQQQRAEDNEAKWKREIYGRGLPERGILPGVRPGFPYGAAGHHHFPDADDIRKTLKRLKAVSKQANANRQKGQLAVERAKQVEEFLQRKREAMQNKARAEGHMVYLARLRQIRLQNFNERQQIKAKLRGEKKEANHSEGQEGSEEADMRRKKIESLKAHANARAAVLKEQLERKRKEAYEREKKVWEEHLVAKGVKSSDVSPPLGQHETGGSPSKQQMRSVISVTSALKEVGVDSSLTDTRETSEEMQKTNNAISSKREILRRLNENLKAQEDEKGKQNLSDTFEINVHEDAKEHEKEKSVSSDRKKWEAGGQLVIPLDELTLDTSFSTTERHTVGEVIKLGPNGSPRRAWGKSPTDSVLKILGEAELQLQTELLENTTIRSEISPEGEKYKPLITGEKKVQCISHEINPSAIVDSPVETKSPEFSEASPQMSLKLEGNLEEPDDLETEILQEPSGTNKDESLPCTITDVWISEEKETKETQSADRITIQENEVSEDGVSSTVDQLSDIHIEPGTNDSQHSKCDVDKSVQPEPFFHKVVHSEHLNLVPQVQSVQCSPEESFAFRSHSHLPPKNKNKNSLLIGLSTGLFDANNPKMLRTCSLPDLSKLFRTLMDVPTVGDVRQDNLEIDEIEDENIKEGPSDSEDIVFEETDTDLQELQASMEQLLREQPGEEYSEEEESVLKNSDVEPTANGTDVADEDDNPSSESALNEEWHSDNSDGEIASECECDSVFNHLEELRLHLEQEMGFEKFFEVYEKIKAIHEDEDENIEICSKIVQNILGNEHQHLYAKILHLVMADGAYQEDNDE

# Set 1
# Structure (SMILES): CC(=O)Nc1c(C(C)=O)c(=O)n(C)c2nc(-c3ccc(Cl)cc3Cl)c(-c3ccc(Cl)cc3)cc12
# Read-out: cell-free assay
# Method: competition with immobilised ligand
# Concentration: 1 µM
target,remaining binding [%]
"Ribosomal protein S6 kinase alpha-1, C-terminal kinase domain (RPS6KA1, Homo sapiens, UniProt Q15418)",100
"WNK2 (Homo sapiens, UniProt Q9Y3S1)",95
"NTRK1 (Homo sapiens, UniProt P04629)",100
"Ribosomal protein S6 kinase alpha-5, N-terminal kinase domain (RPS6KA5, Homo sapiens, UniProt O75582)",100
"NEK1 (Homo sapiens, UniProt Q96PY6)",100
"Cyclin-dependent kinase 4, with cyclin D1 (CDK4, Homo sapiens, UniProt P11802)",100
"GRK4 (Homo sapiens, UniProt P32298)",100
"PAK4 (Homo sapiens, UniProt O96013)",100
"PHKG2 (Homo sapiens, UniProt P15735)",100

# Set 2
# Cell line: mouse MPNST tumor cells
# Method: high-content nuclear imaging
# Item: cell number
# Concentration: 10 µM
# Time: 12 h
# Setting: mean of 2 replicates
# Reference: plate mean
# Direction: higher = more cells
SMILES,nuclei count
Cc1cc(=O)n(C)c2cc(N3C(=O)CC[C@H](NS(=O)(=O)CC(C)C)[C@H]3c3ccc(Cl)cc3)ccc12,2.19 z-score and 1.16 z-score
Cc1ccc(S(=O)(=O)c2ccc([N+](=O)[O-])o2)cc1,-4.92 z-score
O=S(=O)(NC1CCNCC1)c1cc(S(=O)(=O)c2ccccc2)ccc1C(F)(F)F,3.03 z-score
CCOC(=O)CCNc1cc(N2CCc3ccccc3CC2)nc(-c2ccccn2)n1,-4.4 z-score
N#Cc1ccc(NCCNCC(=O)N2CCC[C@H]2C#N)nc1,2.91 z-score
O=C(Nc1ccc(S(=O)(=O)C(F)(F)F)cc1)C1=CCN(c2ncccc2C(F)(F)F)CC1,1.87 z-score
Cc1ccc2c(=O)c3cccc(CC(=O)O)c3oc2c1C,0.708 z-score
CCOc1ccc(-n2c(C(C)N(Cc3cccnc3)C(=O)Cc3ccc(OC(F)(F)F)cc3)nc3ncccc3c2=O)cc1 (stereo not drawn),3.68 z-score
NCCNC(=O)c1ccc(Cl)cn1,0.854 z-score
CN1CCC(Nc2ncc3ncnc(Nc4ccc(F)c(Cl)c4)c3n2)CC1,0.882 z-score

# Set 3
# Cell line: A-375
# Concentration: 100 µM
# Time: 18 h
SMILES,viability
COCCOC(=O)C1=C(C)NC(C)=C(C(=O)OC/C=C/c2ccccc2)C1c1cccc([N+](=O)[O-])c1 (stereo not drawn),51.9%
CC1=C(C(=O)O)N2C(=O)[C@@H](NC(=O)[C@H](N)c3ccc(O)cc3)[C@H]2SC1,98.2%
CN(C(=O)CN(CCO)CC(=O)N(C)C(C)(C)Cc1ccccc1)C(C)(C)Cc1ccccc1,9.04%
CCCc1cc(=O)[nH]c(=S)[nH]1,97.2%
CCCSc1nc(N[C@@H]2C[C@H]2c2ccc(F)c(F)c2)c2nnn([C@@H]3C[C@H](OCCO)[C@@H](O)[C@H]3O)c2n1,8.55%
O=C(N[C@H](CO)[C@H](O)c1ccc([N+](=O)[O-])cc1)C(Cl)Cl,101%
CCCCCCCCN[C@@H](C)[C@H](O)c1ccc(SC(C)C)cc1 (racemic),7.66%
Nc1cccc2c1CN(C1CCC(=O)NC1=O)C2=O (stereo not drawn),101%
Nc1nc2c(ncn2COCCO)c(=O)[nH]1,97%

# Set 4
# Target: Wee1-like protein kinase (WEE1, Homo sapiens, UniProt P30291)
# Sequence of UniProt P30291 (whole entry, looked up): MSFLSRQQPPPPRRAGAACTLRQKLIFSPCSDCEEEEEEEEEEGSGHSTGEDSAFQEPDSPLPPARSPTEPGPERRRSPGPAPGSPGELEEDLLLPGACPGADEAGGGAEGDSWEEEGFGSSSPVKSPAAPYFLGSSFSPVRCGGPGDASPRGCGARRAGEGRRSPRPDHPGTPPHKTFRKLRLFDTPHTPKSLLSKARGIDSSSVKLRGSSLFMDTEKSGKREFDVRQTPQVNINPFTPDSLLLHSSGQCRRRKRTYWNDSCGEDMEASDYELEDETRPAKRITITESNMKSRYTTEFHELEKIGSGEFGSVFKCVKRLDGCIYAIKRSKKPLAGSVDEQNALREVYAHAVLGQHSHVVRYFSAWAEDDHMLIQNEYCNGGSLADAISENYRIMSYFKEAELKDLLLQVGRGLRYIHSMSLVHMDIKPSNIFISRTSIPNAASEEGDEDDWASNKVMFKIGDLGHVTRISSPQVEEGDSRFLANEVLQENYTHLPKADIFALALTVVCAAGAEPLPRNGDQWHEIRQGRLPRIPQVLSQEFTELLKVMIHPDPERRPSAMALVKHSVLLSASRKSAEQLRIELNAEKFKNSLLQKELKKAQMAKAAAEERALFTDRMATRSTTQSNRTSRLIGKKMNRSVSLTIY
# Read-out: enzyme activity
# Mode: inhibitor
# Concentration: 0.5 µM
# Reference: control
Compound,remaining activity [%]
CO[C@H]1C[C@@H]2CC[C@@H](C)[C@@](O)(O2)C(=O)C(=O)N2CCCC[C@H]2C(=O)O[C@H]([C@H](C)C[C@@H]2CC[C@@H](O)[C@H](OC)C2)CC(=O)[C@H](C)/C=C(\C)[C@@H](O)[C@@H](OC)C(=O)[C@H](C)C[C@H](C)/C=C/C=C/C=C/1C,93.3
Nc1ncnc2n[nH]c(Nc3ccc(F)cc3)c12,93.9
CC(C)[C@H](CO)Nc1nc(Nc2cc(N)cc(Cl)c2)c2ncn(C(C)C)c2n1,70.8
O=C(CCCc1ccc(-c2ccccc2F)cc1)Nc1ccc(O)cc1,83.7
COc1ccc(OC)c2c(=S)c3ccccc3[nH]c12,102
Cc1cccc(-c2[nH]c(C(C)(C)C)nc2-c2ccc3c(c2)OCO3)n1,81.5
Nc1[nH]nc2nc3ccccc3nc12,101
CCOC(=O)c1c(C)[nH]c(/C=C2\C(=O)Nc3ccccc32)c1C,91.2
Cc1nc(-c2ccccc2)c(-c2ccncc2)o1,91.9
O=C1NC(=O)C(c2cn(CCCO)c3ncccc23)=C1c1cnccn1,96.2
COc1ccc(C(=O)Nc2sc3c(c2C(N)=O)CCCC3)cc1OC,92.3
COc1cc2nccc(Oc3ccc(NC(=S)NC(=O)c4ccccc4C)cc3)c2cc1OC,89.6
Oc1ccc(-c2nc(-c3ccncc3)c(-c3ccc(F)cc3)[nH]2)cc1,94.9
O=C(O)c1ccc2c3c1cccc3c(=O)n1c3ccccc3nc21,84.6
